Results pooled from the literature.
Every numbered part comes from another study and shows a few of its results, in no order.
Chain of UniProt P42336 (whole entry, unmodified, looked up): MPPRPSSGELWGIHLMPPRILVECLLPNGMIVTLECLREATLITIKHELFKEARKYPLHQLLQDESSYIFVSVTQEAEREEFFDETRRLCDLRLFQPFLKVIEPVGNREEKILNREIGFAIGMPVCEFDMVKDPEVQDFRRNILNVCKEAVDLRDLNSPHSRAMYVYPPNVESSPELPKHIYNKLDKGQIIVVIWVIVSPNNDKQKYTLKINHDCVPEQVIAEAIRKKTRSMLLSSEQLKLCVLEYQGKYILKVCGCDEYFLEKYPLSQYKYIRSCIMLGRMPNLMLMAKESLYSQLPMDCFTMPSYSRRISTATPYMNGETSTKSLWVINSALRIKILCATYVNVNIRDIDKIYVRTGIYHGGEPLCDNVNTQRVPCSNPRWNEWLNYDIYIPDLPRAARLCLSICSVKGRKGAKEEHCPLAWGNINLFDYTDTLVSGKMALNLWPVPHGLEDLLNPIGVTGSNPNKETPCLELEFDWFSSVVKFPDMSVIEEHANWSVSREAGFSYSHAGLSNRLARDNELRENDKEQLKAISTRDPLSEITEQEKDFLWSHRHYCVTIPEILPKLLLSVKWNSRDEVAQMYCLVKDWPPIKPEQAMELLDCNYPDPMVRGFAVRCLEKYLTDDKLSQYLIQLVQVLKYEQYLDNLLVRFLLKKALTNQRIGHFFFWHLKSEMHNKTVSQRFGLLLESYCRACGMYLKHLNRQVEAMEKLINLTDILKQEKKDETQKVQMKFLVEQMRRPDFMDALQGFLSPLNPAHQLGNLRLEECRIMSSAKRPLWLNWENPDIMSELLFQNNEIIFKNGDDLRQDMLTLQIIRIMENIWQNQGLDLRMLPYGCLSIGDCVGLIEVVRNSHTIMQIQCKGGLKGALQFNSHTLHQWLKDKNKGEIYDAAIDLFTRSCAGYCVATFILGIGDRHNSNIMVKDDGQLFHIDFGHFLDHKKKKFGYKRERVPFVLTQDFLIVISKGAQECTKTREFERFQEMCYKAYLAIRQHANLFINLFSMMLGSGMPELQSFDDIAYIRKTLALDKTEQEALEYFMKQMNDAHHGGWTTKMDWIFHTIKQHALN
Chain of UniProt Q02763 (whole entry, looked up): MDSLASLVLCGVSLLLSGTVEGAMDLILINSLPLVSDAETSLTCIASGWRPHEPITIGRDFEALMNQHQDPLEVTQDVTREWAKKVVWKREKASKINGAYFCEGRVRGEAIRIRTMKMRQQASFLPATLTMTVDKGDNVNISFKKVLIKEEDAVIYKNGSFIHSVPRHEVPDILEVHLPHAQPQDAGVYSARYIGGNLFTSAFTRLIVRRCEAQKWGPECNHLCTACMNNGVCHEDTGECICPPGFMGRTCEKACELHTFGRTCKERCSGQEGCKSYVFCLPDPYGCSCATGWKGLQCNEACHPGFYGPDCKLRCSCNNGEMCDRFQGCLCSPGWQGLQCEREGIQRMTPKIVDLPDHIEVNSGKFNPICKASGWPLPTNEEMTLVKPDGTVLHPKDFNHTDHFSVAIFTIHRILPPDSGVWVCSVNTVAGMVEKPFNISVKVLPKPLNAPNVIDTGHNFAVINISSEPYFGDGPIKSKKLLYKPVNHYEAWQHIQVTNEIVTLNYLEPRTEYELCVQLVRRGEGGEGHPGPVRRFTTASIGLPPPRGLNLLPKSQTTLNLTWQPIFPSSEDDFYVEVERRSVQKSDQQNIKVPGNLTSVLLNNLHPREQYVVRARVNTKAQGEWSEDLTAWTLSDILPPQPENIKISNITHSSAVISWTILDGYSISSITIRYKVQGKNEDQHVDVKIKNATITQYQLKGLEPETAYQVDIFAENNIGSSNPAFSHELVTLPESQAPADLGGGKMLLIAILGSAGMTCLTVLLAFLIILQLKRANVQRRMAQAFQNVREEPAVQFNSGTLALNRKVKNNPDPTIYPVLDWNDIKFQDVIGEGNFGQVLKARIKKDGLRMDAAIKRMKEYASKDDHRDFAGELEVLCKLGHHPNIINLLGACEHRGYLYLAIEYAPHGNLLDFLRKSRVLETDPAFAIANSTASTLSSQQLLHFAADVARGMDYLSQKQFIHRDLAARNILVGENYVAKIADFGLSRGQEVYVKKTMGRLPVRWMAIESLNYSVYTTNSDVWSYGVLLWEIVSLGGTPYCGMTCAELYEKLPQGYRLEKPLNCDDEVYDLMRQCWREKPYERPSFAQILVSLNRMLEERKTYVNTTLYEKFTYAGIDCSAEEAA
Chain of UniProt P29317 (whole entry, looked up): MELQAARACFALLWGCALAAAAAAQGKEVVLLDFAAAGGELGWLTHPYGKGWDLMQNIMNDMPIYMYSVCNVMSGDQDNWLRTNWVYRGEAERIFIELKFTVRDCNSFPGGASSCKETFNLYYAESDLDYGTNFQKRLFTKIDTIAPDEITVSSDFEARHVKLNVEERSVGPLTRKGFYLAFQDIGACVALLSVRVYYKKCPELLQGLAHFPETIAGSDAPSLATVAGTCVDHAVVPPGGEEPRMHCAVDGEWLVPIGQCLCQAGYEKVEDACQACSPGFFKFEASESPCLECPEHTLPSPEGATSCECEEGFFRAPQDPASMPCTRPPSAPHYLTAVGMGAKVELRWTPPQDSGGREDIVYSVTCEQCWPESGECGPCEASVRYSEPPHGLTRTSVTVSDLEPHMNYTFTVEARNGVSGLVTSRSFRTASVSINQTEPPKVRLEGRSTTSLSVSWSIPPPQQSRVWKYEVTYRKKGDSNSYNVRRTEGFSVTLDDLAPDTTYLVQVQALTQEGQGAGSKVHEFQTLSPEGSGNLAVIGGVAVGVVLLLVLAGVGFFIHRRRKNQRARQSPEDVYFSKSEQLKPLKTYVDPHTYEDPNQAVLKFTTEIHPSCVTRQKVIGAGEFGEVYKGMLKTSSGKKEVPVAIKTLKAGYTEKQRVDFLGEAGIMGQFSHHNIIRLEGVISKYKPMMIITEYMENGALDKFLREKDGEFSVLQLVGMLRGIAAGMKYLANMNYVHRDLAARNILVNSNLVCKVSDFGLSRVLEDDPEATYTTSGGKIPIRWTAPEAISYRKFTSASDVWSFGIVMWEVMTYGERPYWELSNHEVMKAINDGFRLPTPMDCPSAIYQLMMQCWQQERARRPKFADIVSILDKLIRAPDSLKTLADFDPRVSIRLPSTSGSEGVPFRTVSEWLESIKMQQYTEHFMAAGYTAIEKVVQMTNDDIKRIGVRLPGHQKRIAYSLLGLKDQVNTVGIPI
Chain of UniProt P11309 (whole entry, looked up): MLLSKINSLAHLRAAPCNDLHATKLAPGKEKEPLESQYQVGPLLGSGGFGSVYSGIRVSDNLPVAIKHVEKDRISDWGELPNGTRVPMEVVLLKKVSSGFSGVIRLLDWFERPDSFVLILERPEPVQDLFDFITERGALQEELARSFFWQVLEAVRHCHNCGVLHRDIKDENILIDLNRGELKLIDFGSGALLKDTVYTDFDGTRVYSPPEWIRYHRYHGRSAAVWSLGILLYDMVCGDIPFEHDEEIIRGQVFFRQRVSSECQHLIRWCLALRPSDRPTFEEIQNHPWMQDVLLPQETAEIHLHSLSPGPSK
Chain of UniProt P54753 (whole entry, looked up): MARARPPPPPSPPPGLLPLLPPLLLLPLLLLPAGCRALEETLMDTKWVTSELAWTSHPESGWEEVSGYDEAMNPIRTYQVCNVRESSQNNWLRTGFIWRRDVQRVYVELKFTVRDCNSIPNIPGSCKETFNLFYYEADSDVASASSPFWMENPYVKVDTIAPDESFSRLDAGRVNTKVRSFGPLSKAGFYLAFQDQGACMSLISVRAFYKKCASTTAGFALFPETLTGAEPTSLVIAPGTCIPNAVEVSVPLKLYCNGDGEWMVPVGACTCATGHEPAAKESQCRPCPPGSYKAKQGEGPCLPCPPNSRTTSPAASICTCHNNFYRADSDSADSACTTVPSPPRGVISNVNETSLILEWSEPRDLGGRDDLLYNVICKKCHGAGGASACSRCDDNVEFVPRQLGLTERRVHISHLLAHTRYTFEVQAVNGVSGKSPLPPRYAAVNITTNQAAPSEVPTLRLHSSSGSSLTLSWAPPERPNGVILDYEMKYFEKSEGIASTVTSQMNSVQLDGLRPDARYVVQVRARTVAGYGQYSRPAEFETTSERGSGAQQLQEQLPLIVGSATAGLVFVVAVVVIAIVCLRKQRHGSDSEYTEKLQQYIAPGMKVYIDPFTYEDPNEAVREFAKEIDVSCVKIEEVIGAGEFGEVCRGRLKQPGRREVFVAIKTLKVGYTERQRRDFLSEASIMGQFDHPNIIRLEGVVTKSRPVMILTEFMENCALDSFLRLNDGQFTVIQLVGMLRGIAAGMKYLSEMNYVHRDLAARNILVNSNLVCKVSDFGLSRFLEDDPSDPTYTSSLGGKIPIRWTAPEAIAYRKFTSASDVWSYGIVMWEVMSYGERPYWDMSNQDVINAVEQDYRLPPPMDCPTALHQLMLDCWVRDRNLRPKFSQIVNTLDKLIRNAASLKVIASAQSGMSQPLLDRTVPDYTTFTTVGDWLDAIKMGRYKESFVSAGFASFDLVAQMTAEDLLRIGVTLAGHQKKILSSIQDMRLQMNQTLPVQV

Block 1
Organism: Sarcocystis neurona
Read-out: parasite growth
Tested at: 10 µM
Time: 96 h
Notes: first screen
Reference: untreated
Measurement: log2 fold change
Structure (SMILES) = Nc1ccn([C@@H]2O[C@H](CO)[C@@H](O)[C@@H]2O)c(=O)n1; result = 0.27
Structure (SMILES) = CCn1cc(C(=O)O)c(=O)c2ccc(C)nc21; result = 0.25
Structure (SMILES) = CC(C[N+](C)(C)C)OC(N)=O (stereo not drawn); result = 0.12
Structure (SMILES) = OCCN1CCN(CCCN2c3ccccc3Sc3ccc(C(F)(F)F)cc32)CC1; result = -3.54
Structure (SMILES) = CCN1CCC[C@H]1CNC(=O)c1c(O)c(Cl)cc(Cl)c1OC; result = -0.62

Block 2
Target: Cyclin-dependent kinase 3, with cyclin E (CDK3, Homo sapiens, UniProt Q00526)
Chain of UniProt Q00526 (whole entry, looked up): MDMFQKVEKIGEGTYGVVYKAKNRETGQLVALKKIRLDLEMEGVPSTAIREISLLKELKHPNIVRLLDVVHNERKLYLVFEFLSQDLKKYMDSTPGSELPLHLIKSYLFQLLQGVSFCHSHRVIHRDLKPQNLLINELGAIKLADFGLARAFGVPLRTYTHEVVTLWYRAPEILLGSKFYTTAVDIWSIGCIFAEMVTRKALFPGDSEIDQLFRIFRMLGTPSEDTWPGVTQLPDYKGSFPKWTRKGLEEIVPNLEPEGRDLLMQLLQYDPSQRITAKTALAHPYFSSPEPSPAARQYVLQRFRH
Read-out: enzyme activity
Action: inhibitor
Tested at: 0.5 µM
Reference: control
Measurement: remaining activity
SMILES = NC(=O)c1ccc(N(C(N)=O)c2c(F)cccc2F)nc1-c1ccc(F)cc1F; result = 94.7%
SMILES = COc1ccc(S(=O)(=O)N(CCO)c2ccccc2CN(C)CC=Cc2ccc(Cl)cc2)cc1; result = 103%
SMILES = O=C1Cc2c([nH]c3ccc([N+](=O)[O-])cc23)-c2ccccc2N1; result = 56.8%
SMILES = CC#CC(=O)Nc1cc2c(Nc3ccc(F)c(Cl)c3)ncnc2cn1; result = 96.8%
SMILES = Cc1cc(Nc2nc(-c3ccccc3)nc3ccccc23)n[nH]1; result = 85%
SMILES = Oc1ccc(Nc2nc(-c3ccc(Cl)cc3)cs2)cc1; result = 99%
SMILES = Fc1ccc(-c2nc3n(c2-c2ccncc2)CCS3)cc1; result = 97%
SMILES = CCCC(=O)Oc1ccc2[nH]c(C(=O)c3cc4ccccc4[nH]3)cc2c1; result = 88.2%
SMILES = CC[n+]1c(/C=C/N(C)c2ccccc2)n(-c2ccccc2)c2ccc(-c3nc4ccccc4s3)cc21; result = 92.2%
SMILES = COc1cc(Nc2c(C#N)cnc3cc(OCCCN4CCN(C)CC4)c(OC)cc23)c(Cl)cc1Cl; result = 91.9%
SMILES = CCc1[nH]c(-c2ccc(OC)cc2)nc1-c1ccncc1; result = 97.9%

Block 3
SMILES: CC(=O)N1CCC(c2ccc(C(=O)NC(=N)N)cc2C(F)(F)F)CC1
Read-out: cell-free assay
Technique: competition with immobilised ligand
Tested at: 1 µM
Measurement: remaining binding
target = Serine/threonine-protein kinase PLK3 (PLK3, Homo sapiens, UniProt Q9H4B4); result = 82%
target = Ephrin type-B receptor 3 (EPHB3, Homo sapiens, UniProt P54753); result = 97%
target = Phosphatidylinositol 4,5-bisphosphate 3-kinase catalytic subunit alpha isoform (PIK3CA, Homo sapiens, UniProt P42336, H1047L); result = 100%
target = Angiopoietin-1 receptor (TEK, Homo sapiens, UniProt Q02763); result = 96%
target = Ephrin type-A receptor 2 (EPHA2, Homo sapiens, UniProt P29317); result = 100%
target = Phosphatidylinositol 4,5-bisphosphate 3-kinase catalytic subunit alpha isoform (PIK3CA, Homo sapiens, UniProt P42336, E545A); result = 100%
target = Casein kinase I isoform gamma-1 (CSNK1G1, Homo sapiens, UniProt Q9HCP0); result = 100%
target = Tyrosine-protein kinase ABL1, non-phosphorylated (ABL1, Homo sapiens, UniProt P00519, T315I); result = 95%
target = Casein kinase I isoform gamma-2 (CSNK1G2, Homo sapiens, UniProt P78368); result = 100%
target = Phosphatidylinositol 4,5-bisphosphate 3-kinase catalytic subunit beta isoform (PIK3CB, Homo sapiens, UniProt P42338); result = 100%
target = Epidermal growth factor receptor (EGFR, Homo sapiens, UniProt P00533, G719C); result = 100%
target = Death-associated protein kinase 2 (DAPK2, Homo sapiens, UniProt Q9UIK4); result = 100%
target = cAMP-dependent protein kinase catalytic subunit beta (PRKACB, Homo sapiens, UniProt P22694); result = 100%
target = Protein-tyrosine kinase 6 (PTK6, Homo sapiens, UniProt Q13882); result = 100%
target = Serine/threonine-protein kinase pim-1 (PIM1, Homo sapiens, UniProt P11309); result = 100%
target = Mitogen-activated protein kinase kinase kinase 5 (MAP3K5, Homo sapiens, UniProt Q99683); result = 100%

Block 4
Species: mouse
Sample: microsomes or S9
Tested at: 2 µM
Time: 0.5 h
Measurement: remaining compound
SMILES = O=C(NCCCCCCNC(=O)N1CCCCC1)N1CCCCC1; result = 0.206%
SMILES = Cc1ccc2c(c1)NC(=O)c1cc(S(=O)(=O)N(C)C)c(Oc3ccccc3Br)cc1O2; result = 0.224%
SMILES = Cn1nc(CNC(=O)C2CC(=O)N(C3CCCCC3)C2)c2c1CCN(S(C)(=O)=O)C2 (stereo not drawn); result = 58.9%
SMILES = O=C(O)CCCN1C(=O)C2Cc3ccccc3CN2C1=O (stereo not drawn); result = 17.3%
SMILES = O=C(CCC1N=C(O)N(Cc2ccco2)C1=O)Nc1ccc2cc[nH]c2c1 (stereo not drawn); result = 96%
SMILES = Cc1ccc(NC(=O)Cn2nc3c(N4CC(C)CC(C)C4)nccn3c2=O)c(Cl)c1 (stereo not drawn); result = 0.876%
SMILES = CC1CC(=O)NN=C1c1ccc(-n2ccnc2)c(F)c1 (stereo not drawn); result = 65.1%

Excerpt of the above (block 2):
SMILES = O=C1Cc2c([nH]c3ccc([N+](=O)[O-])cc23)-c2ccccc2N1; result = 56.8%
SMILES = CC#CC(=O)Nc1cc2c(Nc3ccc(F)c(Cl)c3)ncnc2cn1; result = 96.8%
SMILES = Cc1cc(Nc2nc(-c3ccccc3)nc3ccccc23)n[nH]1; result = 85%
SMILES = Oc1ccc(Nc2nc(-c3ccc(Cl)cc3)cs2)cc1; result = 99%
SMILES = Fc1ccc(-c2nc3n(c2-c2ccncc2)CCS3)cc1; result = 97%
SMILES = CCCC(=O)Oc1ccc2[nH]c(C(=O)c3cc4ccccc4[nH]3)cc2c1; result = 88.2%
